Assay results gathered from unrelated publications.
Lines come from different studies, so protocols differ.
Organism: Pseudomonas aeruginosa

CC[C@H](C)[C@H](NC(=O)[C@H](CCCCN)NC(=O)[C@H](CCCCN)NC(=O)[C@H](CC(C)C)NC(=O)[C@H](CCCCN)NC(=O)[C@H](CCC(=O)O)NC(=O)[C@H](CCCCN)NC(=O)[C@@H](NC(=O)[C@H](CCCCN)NC(=O)[C@H](CC(N)=O)NC(=O)[C@H](CCCNC(=N)N)NC(=O)[C@H](Cc1ccccc1)NC(=O)[C@H](CCCCN)NC(=O)[C@H](CCCNC(=N)N)NC(=O)[C@H](CC(C)C)NC(=O)[C@H](CCCNC(=N)N)NC(=O)[C@H](CCCCN)NC(=O)[C@H](CCCNC(=N)N)NC(=O)[C@H](CC(C)C)NC(=O)[C@@H](N)CC(C)C)[C@@H](C)CC)C(=O)NCC(=O)N[C@@H](CCC(N)=O)C(=O)N[C@@H](CCCCN)C(=O)N[C@H](C(=O)N[C@@H](CCC(N)=O)C(=O)NCC(=O)N[C@@H](Cc1ccccc1)C(=O)N[C@H](C(=O)N1CCC[C@H]1C(=O)N[C@@H](CCCCN)C(=O)N[C@@H](CC(C)C)C(=O)N[C@H](C(=O)N1CCC[C@H]1C(=O)N[C@@H](CCCNC(=N)N)C(=O)N[C@H](C(=O)N[C@@H](CCC(=O)O)C(=O)N[C@@H](CO)C(=O)O)[C@@H](C)O)C(C)C)C(C)C)[C@@H](C)CC  lethal concentration (inhibition zone method; 374, LB 0.8% agar with 154 mM NaCl; overnight, 37 °C): 4.77 µM
CC(C)C[C@@H]1NC(=O)[C@H](CC(C)C)NC(=O)[C@H](CC(C)C)NC(=O)[C@@H]2CSCC(=O)N[C@@H](CCCCN)C(=O)N[C@@H](CCCCN)C(=O)N[C@@H](CCCCN)C(=O)N[C@@H](CCCCNC(=O)[C@H](CCCCN)NC(=O)[C@H](CCCCN)NC(=O)[C@H](CCCCN)NC(=O)CSC[C@@H](C(=O)N[C@@H](CCCCN)C(N)=O)NC1=O)C(=O)N[C@@H](CCCCN)C(=O)N[C@@H](CC(C)C)C(=O)N[C@@H](CC(C)C)C(=O)N2  minimal biofilm inhibitory concentration (PAO1; 24 to 25 h): 32 µg/mL
CC[C@H](C)[C@H](NC(=O)[C@H](Cc1c[nH]cn1)NC(=O)[C@H](CCCCNC(=O)[C@@H](NC(=O)[C@H](CCCCN)NC(=O)CSC[C@H](NC(=O)[C@H](Cc1ccccc1)NC(=O)[C@H](CCCCNC(=O)[C@H](CC(C)C)NC(=O)[C@@H]1CCCN1C(=O)[C@H](CCCCN)NC(=O)C[C@@H]1O[C@@H](C)[C@@H](O)[C@@H](O)[C@@H]1O)NC(=O)[C@H](CC(C)C)NC(=O)[C@@H]1CCCN1C(=O)[C@H](CCCCN)NC(=O)C[C@@H]1O[C@@H](C)[C@@H](O)[C@@H](O)[C@@H]1O)C(N)=O)[C@@H](C)CC)NC(=O)[C@@H](NC(=O)[C@H](CCCCN)NC(=O)CSC[C@H](NC(=O)[C@H](Cc1ccccc1)NC(=O)[C@H](CCCCNC(=O)[C@H](CC(C)C)NC(=O)[C@@H]1CCCN1C(=O)[C@H](CCCCN)NC(=O)C[C@@H]1O[C@@H](C)[C@@H](O)[C@@H](O)[C@@H]1O)NC(=O)[C@H](CC(C)C)NC(=O)[C@@H]1CCCN1C(=O)[C@H](CCCCN)NC(=O)C[C@@H]1O[C@@H](C)[C@@H](O)[C@@H](O)[C@@H]1O)C(N)=O)[C@@H](C)CC)C(N)=O  MBIC (biofilm formation; PAO1; 24 h): 45 µM
O=C1NC(=O)c2c(NCCCc3cccc(O)c3)cccc21  survival reduction (PAO1; concentration not given, 18 h, together with: norfloxacin 0.9 µg/mL; reference: norfloxacin alone): ~50 fold
C[C@H](NC(=O)[C@@H]1CCCN1C(=O)[C@@H]1CCCN1C(=O)[C@@H]1CCCN1C(=O)[C@@H]1CCCN1C(=O)[C@H](CCCCN)NC(=O)[C@H](CCCCN)NC(=O)[C@H](CCCCN)NC(=O)[C@@H]1CCCN1C(=O)[C@H](CCCCN)NC(=O)[C@@H](N)CC(=O)O)C(=O)NCC(=O)N1CCC[C@H]1C(=O)N1CCC[C@H]1C(=O)N1CCC[C@H]1C(=O)N1CCC[C@H]1C(=O)N1CCC[C@H]1C(=O)N1CCC[C@H]1C(=O)N1CCC[C@H]1C(=O)N1CCC[C@H]1C(=O)N1CCC[C@H]1C(=O)NCC(=O)N1CCC[C@H]1C(=O)N1CCC[C@H]1C(=O)N1CCC[C@H]1C(=O)N1CCC[C@H]1C(=O)NCC(=O)N1CCC[C@H]1C(=O)O  median survival (ATCC 9027, Galleria mellonella larvae; 6.1 µmol/kg, 30 min post infection): 144 h
CCCCCC(=O)NCC(=O)N[C@@H](CC(C)C)C(=O)N[C@@H](CC(C)C)C(=O)N[C@@H](CCCCN)C(=O)N[C@@H](CCCNC(=N)N)C(=O)N[C@H](C(=O)N[C@@H](CCCCN)C(=O)N[C@H](C(=O)N[C@@H](CC(C)C)C(=O)N[C@@H](CC(C)C)C(=O)NCCCC[C@H](NC(=O)[C@H](CC(C)C)NC(=O)[C@H](CC(C)C)NC(=O)[C@@H](NC(=O)[C@H](CCCCN)NC(=O)[C@@H](NC(=O)[C@H](CCCNC(=N)N)NC(=O)[C@H](CCCCN)NC(=O)[C@H](CC(C)C)NC(=O)[C@H](CC(C)C)NC(=O)CNC(=O)CCCCC)[C@@H](C)CC)[C@@H](C)O)C(N)=O)[C@@H](C)O)[C@@H](C)CC  FIC index (checkerboard; ATCC 27853; together with: rifampicin): 0.375
Nc1ccccc1C(=O)NS(=O)(=O)OC[C@H]1O[C@@H](n2cnc3c(N)ncnc32)[C@H](O)[C@@H]1O  inhibition (HHQ production, LC-MS/MS; PA14; 1500 µM, 8 h): 67%
CC[C@H](C)[C@H](NC(=O)[C@H](CCCCN)NC(=O)[C@H](CCCCN)NC(=O)[C@H](CC(C)C)NC(=O)[C@H](CCCCN)NC(=O)[C@H](CCC(=O)O)NC(=O)[C@H](CCCCN)NC(=O)[C@@H](NC(=O)[C@H](CCCCN)NC(=O)[C@H](CC(N)=O)NC(=O)[C@H](CCCNC(=N)N)NC(=O)[C@H](Cc1ccccc1)NC(=O)[C@H](CCCCN)NC(=O)[C@H](CCCNC(=N)N)NC(=O)[C@H](CC(C)C)NC(=O)[C@H](CCCNC(=N)N)NC(=O)[C@H](CCCCN)NC(=O)[C@H](CCCNC(=N)N)NC(=O)[C@H](CC(C)C)NC(=O)CN)[C@@H](C)CC)C(=O)NCC(=O)N[C@@H](CCC(N)=O)C(=O)N[C@@H](CCCCN)C(=O)N[C@H](C(=O)N[C@@H](CCC(N)=O)C(=O)NCC(=O)N[C@@H](Cc1ccccc1)C(=O)N[C@H](C(=O)N1CCC[C@H]1C(=O)N[C@@H](CCCCN)C(=O)N[C@@H](CC(C)C)C(=O)N[C@@H](C)C(=O)N1CCC[C@H]1C(=O)N[C@@H](CCCNC(=N)N)C(=O)N[C@H](C(=O)N[C@@H](CC(=O)O)C(=O)N[C@@H](Cc1ccc(O)cc1)C(=O)O)[C@@H](C)O)C(C)C)[C@@H](C)CC  lethal concentration (inhibition zone method; 11092618, LB 0.8% agar with 154 mM NaCl; overnight, 37 °C): 2.91 µM
CCCC(=O)NCC(=O)N[C@@H](CC(C)C)C(=O)N[C@@H](CC(C)C)C(=O)N[C@@H](CCCCN)C(=O)N[C@@H](CCCNC(=N)N)C(=O)N[C@H](C(=O)N[C@@H](CCCCN)C(=O)N[C@H](C(=O)N[C@@H](CC(C)C)C(=O)N[C@@H](CC(C)C)C(=O)NCCCC[C@H](NC(=O)[C@H](CC(C)C)NC(=O)[C@H](CC(C)C)NC(=O)[C@@H](NC(=O)[C@H](CCCCN)NC(=O)[C@@H](NC(=O)[C@H](CCCNC(=N)N)NC(=O)[C@H](CCCCN)NC(=O)[C@H](CC(C)C)NC(=O)[C@H](CC(C)C)NC(=O)CNC(=O)CCC)[C@@H](C)CC)[C@@H](C)O)C(N)=O)[C@@H](C)O)[C@@H](C)CC  FIC index (checkerboard; ATCC 27853; together with: rifampicin): 0.5
CC[C@H](C)[C@H](NC(=O)[C@H](CCCCN)NC(=O)[C@H](CCCCN)NC(=O)[C@H](CC(C)C)NC(=O)[C@H](CCCCN)NC(=O)[C@H](CCC(=O)O)NC(=O)[C@H](CCCCN)NC(=O)[C@@H](NC(=O)[C@H](CCCCN)NC(=O)[C@H](CC(N)=O)NC(=O)[C@H](CCCNC(=N)N)NC(=O)[C@H](Cc1ccccc1)NC(=O)[C@H](CCCCN)NC(=O)[C@H](CCCNC(=N)N)NC(=O)[C@H](CC(C)C)NC(=O)[C@H](CCCNC(=N)N)NC(=O)[C@H](CCCCN)NC(=O)[C@H](CCCNC(=N)N)NC(=O)[C@H](CC(C)C)NC(=O)[C@@H](N)CCCNC(=N)N)[C@@H](C)CC)C(=O)NCC(=O)N[C@@H](CCC(N)=O)C(=O)N[C@@H](CCCCN)C(=O)N[C@H](C(=O)N[C@@H](CCC(N)=O)C(=O)NCC(=O)N[C@@H](Cc1ccccc1)C(=O)N[C@H](C(=O)N1CCC[C@H]1C(=O)N[C@@H](CCCCN)C(=O)N[C@@H](CC(C)C)C(=O)N[C@@H](CCC(N)=O)C(=O)N1CCC[C@H]1C(=O)N[C@@H](CO)C(=O)N[C@@H](CCCCN)C(=O)N[C@@H](CCC(N)=O)C(=O)N[C@@H](CO)C(=O)O)C(C)C)[C@@H](C)CC  lethal concentration (inhibition zone method; 11082616, LB 0.8% agar with 154 mM NaCl; overnight, 37 °C): 7.2 µM
CC[C@H](C)[C@H](NC(=O)[C@H](Cc1c[nH]cn1)NC(=O)[C@H](CCCCNC(=O)[C@@H](NC(=O)[C@H](CCCCN)NC(=O)CSC[C@H](NC(=O)[C@H](Cc1ccccc1)NC(=O)[C@H](CCCCNC(=O)[C@H](CC(C)C)NC(=O)[C@@H]1CCCN1C(=O)[C@H](CCCCN)NC(=O)CCS[C@@H]1O[C@H](CO)[C@H](O)[C@H](O)[C@H]1O)NC(=O)[C@H](CC(C)C)NC(=O)[C@@H]1CCCN1C(=O)[C@H](CCCCN)NC(=O)CCS[C@@H]1O[C@H](CO)[C@H](O)[C@H](O)[C@H]1O)C(N)=O)[C@@H](C)CC)NC(=O)[C@@H](NC(=O)[C@H](CCCCN)NC(=O)CSC[C@H](NC(=O)[C@H](Cc1ccccc1)NC(=O)[C@H](CCCCNC(=O)[C@H](CC(C)C)NC(=O)[C@@H]1CCCN1C(=O)[C@H](CCCCN)NC(=O)CCS[C@@H]1O[C@H](CO)[C@H](O)[C@H](O)[C@H]1O)NC(=O)[C@H](CC(C)C)NC(=O)[C@@H]1CCCN1C(=O)[C@H](CCCCN)NC(=O)CCS[C@@H]1O[C@H](CO)[C@H](O)[C@H](O)[C@H]1O)C(N)=O)[C@@H](C)CC)C(N)=O  MBC (PAO1; biofilm-forming conditions): > 45 µM
CC(C)C1=CC2=CCC3C(C)(C(=O)OCCC[N+](C)(C)C)CCCC3(C)C2CC1 (stereo not shown)  selectivity index (ATCC 27853; reference: HC50 over MIC): 3
CC[C@H](C)[C@H](NC(=O)[C@H](CCCNC(=N)N)NC(=O)[C@@H](NC(=O)[C@H](C)NC(=O)[C@@H](NC(=O)[C@@H](NC(=O)[C@H](CC(C)C)NC(=O)[C@H](CCCNC(=N)N)NC(=O)[C@@H](N)C(C)C)[C@@H](C)CC)C(C)C)C(C)C)C(=O)N[C@@H](Cc1c[nH]c2ccccc12)C(=O)N[C@@H](CCCNC(=N)N)C(=O)N[C@@H](CCCNC(=N)N)C(N)=O  biofilm inhibition (propidium iodide staining; gfp-tagged; 10 µg/mL, added at start, shear flow): 99%
